Assay results from different studies.
Protocols differ between the studies behind these lines.

Structure (SMILES)	assay	test system	conditions	Tmax [min]
O=C1OC2(c3ccccc31)c1cc(I)c(O)c(I)c1Oc1c2cc(I)c(O)c1I		C57BL/6 mouse, female, plasma	oral, 100 mg/kg	~20
CC(C)[C@H](CO)Nc1nc(Nc2ccc(C(=O)NCCNS(=O)(=O)c3cccc4c(N(C)C)cccc34)c(Cl)c2)c2ncn(C(C)C)c2n1		mouse, kidney and serum	oral, 20 mg/kg	60
COc1ccc(-c2ccn(CC[C@](C)(C(=O)NO)S(C)(=O)=O)c(=O)c2)c(F)c1		CF-1 mouse, female	subcutaneous, 18.75 mg/kg	15
CC=C1C(OC2OC(CO)C(O)C(O)C2O)OC=C(C(=O)OC)C1CC(=O)OCC1OC(OCCc2ccc(O)cc2)C(O)C(O)C1O (stereo not drawn)		tumour-bearing BALB/c mouse, plasma	oral, 109.2 mg/kg	8
CC1(C)CC[C@@]2(CO)C(=C3C=C[C@@H]4[C@@]5(C)CC[C@H](O)[C@@](C)(CO)[C@@H]5CC[C@@]4(C)[C@]3(C)C[C@@H]2O)C1		mouse, plasma	oral, 50 mg/kg of saikosaponin a	480
C[C@@H](COc1ccc(F)cc1)C(=O)n1nc(N)c2ccc(CO)cc21		C57BL/6 mouse, plasma	oral, 10 mg/kg	15
C[C@@H]1Cc2c([nH]c3ccccc23)[C@@H](c2c(F)cc(/C=C/C(=O)O)cc2F)N1C12CC(C1)C2		Balb/c nude mouse, MCF7 xenograft, tumour	oral, 10 mg/kg	120
COc1ccc(NC(=O)N2CCCCN3[C@H](CN(C)C)[C@H](c4ccc(C#Cc5ccccc5)cc4)[C@@H]3C2)cc1		CD-1 mouse, plasma	oral, 10 mg/kg, single dose	480
N=C(N)NCCC[C@@H]1NC(=O)[C@H](Cc2c[nH]c3ccccc23)NC(=O)[C@@H](CC2CCCCC2)NC(=O)[C@@H]2CCCN2C(=O)[C@@H](NC(=O)CCc2ccccc2)CCCNC1=O		C57BL/6J mouse, plasma	oral, 1 mg/kg, single dose	27.7
Oc1cc(F)ccc1Oc1ccccc1		CD-1 mouse, plasma	subcutaneous, 100 mg/kg	45
COc1ccc(NC(=O)N2CCCN3CCC(c4ccc(C#Cc5ccccc5)cc4)C3C2)cc1 (stereo not drawn)		CD-1 mouse, plasma	oral, 10 mg/kg, single dose	180
[11CH3]N1CCN(CCCOc2ccc(=O)n(-c3ccc(Cl)c(Cl)c3)n2)CC1	radiotracer	mouse BALB/c male, liver	intravenous	30
O=C(NCCN1C(=O)C=CC1=O)[O][Pt-2]12([O]C(=O)NCCN3C(=O)C=CC3=O)([NH2+][C@@H]3CCCC[C@H]3[NH2+]1)[O]C(=O)C(=O)[O]2	ICP-MS	BALB/c mouse CT26 allograft, tumour	intravenous, dose not given	2880
N#CC1(c2ccc3c(N)ncnn23)OC(COP(=O)(O)O)C(O)C1O (stereo not drawn)	LC-MS/MS	CD-1 mouse male, kidney	oral, 100 mg/kg of remdesivir	60
CCNC(=O)c1noc(-c2cc(C(C)C)c(O)cc2O)c1NC(=O)CCN1CCOCC1		CD1 nude mouse, A-431 xenograft, lung	intraperitoneal, 80 mg/kg single	≤ 60
COC(=O)N[C@H]1CC[C@@H](Nc2cc(NCc3ccccc3F)n3ncc(C(C)C)c3n2)CC1		female BALB/c mouse, plasma	oral, 10 mg/kg	15
Cc1cc(NC(=O)[C@H](O)c2cc(F)cc(F)c2)ccc1-c1cnc(N)c(C(=O)NC(C)C)c1		mouse, plasma	oral, 3 to 100 mg/kg	< 60
NC(=O)c1ccc(C(=O)NOCc2ccc(Sc3cccc(Cl)c3)c(C(F)(F)F)c2)cc1		male ICR mouse, plasma	intraperitoneal, 30 mg/kg	25.2
